# Experimental data gathered from unrelated publications.
# A part holds a random share of what one study measured. Changes are numbered by the printed parent chain.

# Block 1
# Target: Protein max, full length (MAX, Homo sapiens, UniProt P61244-2, residues 1-151)
# Technique: protein-binding microarray
# Form: double-stranded DNA, one strand shown
# Sample: in vitro
# Concentration: not given
# Notes: k-mer, scored over probes, only values ≥0.25
# Reading: higher = stronger binding
Oligonucleotide,E-score
CATATGCG,0.368
CGTGCTGC,0.405
AACCTCAT,0.291
AACACGCC,0.347
AACACGAT,0.283
ATGCCACG,0.399
ACGTGGTA,0.45
CCATGAGA,0.311
CGTGCGAC,0.319
AACGTGAT,0.431
ACCCACCC,0.32
CGTGGCCC,0.358
AGGCACGC,0.395
CACGCACC,0.369
CACTCATG,0.267
CACGTGGC,0.497
CATATGGA,0.269
AAACGTGT,0.388
AACCACGC,0.448
AACGCGTG,0.455

# Block 2
# Target: Phosphate system positive regulatory protein PHO4, full length, GST-tagged (PHO4, Saccharomyces cerevisiae, UniProt P07270, residues 1-312)
# Technique: competition protein-binding microarray
# Form: double-stranded DNA, one strand shown
# Sample: in vitro
# Concentration: 2 µM
# Notes: whole 60-bp probe, lowest competitor level
# With: Cbf1 competitor, 0.05 µM
# Reading: higher = stronger binding
# All sequences stand within: … GTCTTGATTCGCTTGACGCTGCTG
# Residues (chain): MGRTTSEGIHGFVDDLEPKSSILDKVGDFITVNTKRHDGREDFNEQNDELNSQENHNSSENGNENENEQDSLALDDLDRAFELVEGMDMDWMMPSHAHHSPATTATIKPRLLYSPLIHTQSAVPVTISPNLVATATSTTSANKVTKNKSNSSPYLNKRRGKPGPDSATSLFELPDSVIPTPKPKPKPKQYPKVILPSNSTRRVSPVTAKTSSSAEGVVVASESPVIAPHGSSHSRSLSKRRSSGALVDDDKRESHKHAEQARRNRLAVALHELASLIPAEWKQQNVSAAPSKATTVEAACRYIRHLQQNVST
Oligonucleotide,fluorescence intensity [a.u.]
TTACTTTAACCTTTAGTAAATTCAGCGTCTTGACCA,2500
CGGGGTTAAGTTTGCTAAGTGGGTGGCTTGCAGCAG,4970
AAAGCGGTAATTTTTCACGTGCAATCAAATATCTAT,13100
TGCAATAAGAAAACACACGTTAAATTACACTCAGGG,6360
CAGTGGAAACAAGAAAACGTGCTAAATCCAGAACTC,14300
CTAACGAAGGTTTTTCACGTGTTGTACAAGCCAAGT,14000
CTGAGCATAGCCAATCACGTGGCCCACTCCCCGGCT,16600
TTGCTTGCAAACCGTCACATGCTTATAATCAACTTT,9390
CATACCCAACCTTTTCACGTGGTATAAGATATTTGT,13900
CTTCTATGACCTCTTCACGTGGCCGAATGTTCTGTT,15000
CTTCTGTAAATTTGAAGGGTGGGTGGACGCGCCCCG,4630
CTTGGTTATCTTTGACATGTGTTTCGTTCAGGCGAG,10500
CCTGGACGCATTCAACACGCTGCTCGAGCGGCTGCT,6240
CTTCTGTAAATTTGTCACGCGACTTGACGCGCCCCG,7640
TTCTTCTCCCAATCGCACGGCGAAGTCGCTCGACAA,4200
TATTATTGATCGAGTCACGTTCTTCCAACGTTTCCG,14100
CTTCTGTAAATTTGGGAGGTGGGTGGACGCGCCCCG,4090
TTTCGGCTTCACCTACACGTTTGATTAATCTTAAAG,7200
TTCCCATTGACGTACAAGGTGATGCTGATCGTTCGG,4730
AATAAGTCGATCCAACACGTGGTGAGATACTAGCAG,18300
TTGCCATGGCGATCGCGCGTGGGTATGGTCTTTCCC,7640
AAATTAATTATTCAACACGTGATGGAGTTACTCTAA,17500
CTTCTGTAAATTTGGTATGTGGGTGGACGCGCCCCG,5510

# Block 3
# Target: ABI1, truncated, D143A, DHFR fusion (Arabidopsis thaliana)
# Technique: DHFR PCA, deep sequencing
# Sample: yeast
# Notes: methotrexate growth selection, single substitutions
# With: (+)-ABA 4.8 µM
# Relative to: wild-type fitted maximum
# Reading: higher = stronger binding
# Starting sequence: PYL1, truncated, DHFR fusion (Arabidopsis thaliana); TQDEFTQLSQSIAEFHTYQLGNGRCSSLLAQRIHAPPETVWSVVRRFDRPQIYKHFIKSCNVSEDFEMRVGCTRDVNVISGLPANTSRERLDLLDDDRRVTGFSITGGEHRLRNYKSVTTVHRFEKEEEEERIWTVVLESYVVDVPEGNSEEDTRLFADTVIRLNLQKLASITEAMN; partner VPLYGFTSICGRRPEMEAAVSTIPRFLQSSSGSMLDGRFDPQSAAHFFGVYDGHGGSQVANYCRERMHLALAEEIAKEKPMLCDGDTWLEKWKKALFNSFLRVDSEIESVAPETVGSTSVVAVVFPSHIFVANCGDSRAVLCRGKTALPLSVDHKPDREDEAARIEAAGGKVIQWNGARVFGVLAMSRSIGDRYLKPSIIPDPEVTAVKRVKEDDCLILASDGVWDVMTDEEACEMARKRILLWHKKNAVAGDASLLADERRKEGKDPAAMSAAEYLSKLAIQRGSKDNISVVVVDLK
Change,relative binding score
R49M,65%
S11E,86.7%
T106N,12.2%
G21H,63%
D144W,-6.22%
E131N,88.4%
T160N,31.2%
Q31F,-3.58%
Q19Y,54.4%
L28D,-9.81%
E139A,4.49%
F124W,85.5%
D65K,65.4%
Y141L,-7.99%

# Block 4
# Target: RNA binding protein fox-1 homolog 2, RRM domain, GST-SBP tag (RBFOX2, Homo sapiens, UniProt O43251-10, residues 100-194)
# Technique: RNA Bind-n-Seq
# Form: RNA
# Sample: in vitro
# Concentration: 365 nM
# Notes: natural RNA segment, single round, ends assumed
# Relative to: no-protein control
# Reading: higher = stronger binding
# All sequences stand within: GGGAGUUCUACAGUCCGACGAUC … UGGAAUUCUCGGGUGCCAA
# Target sequence (chain): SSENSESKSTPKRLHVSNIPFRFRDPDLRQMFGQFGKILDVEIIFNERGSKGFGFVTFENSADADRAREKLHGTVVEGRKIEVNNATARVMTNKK
Oligonucleotide,RBNS enrichment (R)
AGAUCACAGAAGAUACAGUUGAGUUCGGAUCAUAGAGACCAUCUCAAGAACUUCAUUUGCUUCAAAACAAGAUAAUGAACAGAAUGCAUUUGUAAAUGCAAGAUGCAUUG,0.289
UCUUCUCAUCUCCCAAACCCCCUGAGCCCGUAGGGUUUUCAUAGUGGACAAAGAACUUGUGGUCUUUUAAAACUGGGACUGAUACUUUUUUGAGAGAGUAUCGUGUCGAA,0.365
UCUUCUCAACCCUUCAAACUUCUGGUGACACUUAAGAUGUAGCUGAUUCCCCUCAUCCGAACUGCUGUGUCCAACCUCCAUUGAAGAGCCUUUUCUCCCUCCCUCUCCCU,0.926
UUAGGGUUUAAAAUAGGGGAGCCUGUGGUGGCCUGGUGCACAGGGCUAGAACGAGAGUGCCUCCCCUUCUUGUGUCCUGGCUGGCUGGGAUGCUGGUGGCUCUUCAGAGG,0.682
ACACAGUGGGUUUGGUUGUAAGGCAGAUGUAAUAGAUGACUUCAAAAGCCUGCUCCUUACUGCACUCUGGACAAGGCCCUGGUCUGUAUAGUUUGGCUUCCUCUGUUAAG,0.457
ACUGAGGGCUCUGCGUCCCUGCAGUAAACAGGUGAGAUCUGCAGCAGGGCAGGGCUGCUUUAACAGGCAGGGGUGGCAGUAAGUCACAGCUGCUGCUGCUGUCGUCUGCC,0.441
AAAUAUUCAGAUACAAGUUUUAUCUCAGGUGAAUACUCUUGUAUUGUUUUUGCUUUGGUGACAUGCUUAUAAAGGGUCAUCCUAGUUACAUUCUUUGUUUUUUAAGUGUA,0.489
UUUGGUCUCUUUGACUUGGUUUCUAUAAAUGUUUUUAAAAUGAAGUAAAGCUCUUCUUUACGAGGGGAAUGCUGACUUGAAAUCCUGUAACAGAUGAGAAAGAGUCAUUA,0.303
CAGGGGGGAAGGACACUGGAGACUUUCUUGUGGGGCUUACUUAGCCUUCUGGUUACAGACUAUUUCCAUGCUAGAAAAUACAUAUUUUAAAAUAGAAGGAAAAACACAGA,0.753
AGCUACAUUUUUUUUUGGUAGAGACAGGGUCUCACUAUGUUACCCAGUCUGGUCUCAAACUCCCGGCCUCAAGCAAUCCUCCCACUGGCCUCACAAUGUUGGGAUUACAG,0.195
GUGCUGGUGCAAGGACUUCUGUUCCAAAGGCUGGGAAAAACUAAGCUGUCCCAGCCCCUCCCAUUUCUUGGGCAGGGCUCUUUUCCUGUUGUGUCUUCCCCCAGGGCCUG,0.349
AACACAGGGGCAAAGGAAGACAGGCCUGAUGUGCCCACUCAUCUAUGGACUCAGAGCUGUGUGCUUUGCUCCUGCAUCUUGUUGAGGUGCUGUUCCAGCUUUGCAUUUCU,0.423

# Block 5
# Target: CCND2, cyclin fold, Cln2 fusion (human)
# Technique: yeast growth competition, sequencing
# Sample: yeast
# Notes: weak parent motif
# Relative to: not given
# Reading: higher = stronger binding
# Starting sequence: MICAL3 docking peptide (human); LQLRRQLSFSEDS; partner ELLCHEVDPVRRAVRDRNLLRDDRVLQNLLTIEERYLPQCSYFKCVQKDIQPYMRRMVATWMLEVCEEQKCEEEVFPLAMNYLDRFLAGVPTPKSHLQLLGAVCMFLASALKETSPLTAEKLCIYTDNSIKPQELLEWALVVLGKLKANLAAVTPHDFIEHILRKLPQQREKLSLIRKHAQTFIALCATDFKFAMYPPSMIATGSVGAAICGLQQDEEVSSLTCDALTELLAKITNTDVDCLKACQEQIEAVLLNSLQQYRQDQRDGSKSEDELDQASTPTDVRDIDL
Change,normalised enrichment score
LQLRRQCSFSEDS [L7C],-0.0942
LQLRRQLSDSEDS [F9D],0.144
LQLRRQASFSEDS [L7A],0.0724
LQLRRQFSFSEDS [L7F],-0.212
LELRRQLSFSEDS [Q2E],0.119
LQLRRQLSFSVDS [E11V],0.00159
LQLRRQLSFSDDS [E11D],0.161
LQLRRQLSFEEDS [S10E],0.282
LQIRRQLSFSEDS [L3I],0.715
LQLRRQESFSEDS [L7E],0.241
LQLRRQDSFSEDS [L7D],-0.0503
LQLRRQLSFVEDS [S10V],-0.0392
LQLRRQLSFSRDS [E11R],0.364
LQLRRQLSFSEGS [D12G],0.0337
LQLRRQLSISEDS [F9I],-0.0605
LQLRRRLSFSEDS [Q6R],0.997

# A few entries again (block 4):
Oligonucleotide,RBNS enrichment (R)
UUUGGUCUCUUUGACUUGGUUUCUAUAAAUGUUUUUAAAAUGAAGUAAAGCUCUUCUUUACGAGGGGAAUGCUGACUUGAAAUCCUGUAACAGAUGAGAAAGAGUCAUUA,0.303
AAAUAUUCAGAUACAAGUUUUAUCUCAGGUGAAUACUCUUGUAUUGUUUUUGCUUUGGUGACAUGCUUAUAAAGGGUCAUCCUAGUUACAUUCUUUGUUUUUUAAGUGUA,0.489
CAGGGGGGAAGGACACUGGAGACUUUCUUGUGGGGCUUACUUAGCCUUCUGGUUACAGACUAUUUCCAUGCUAGAAAAUACAUAUUUUAAAAUAGAAGGAAAAACACAGA,0.753
UUAGGGUUUAAAAUAGGGGAGCCUGUGGUGGCCUGGUGCACAGGGCUAGAACGAGAGUGCCUCCCCUUCUUGUGUCCUGGCUGGCUGGGAUGCUGGUGGCUCUUCAGAGG,0.682
AGCUACAUUUUUUUUUGGUAGAGACAGGGUCUCACUAUGUUACCCAGUCUGGUCUCAAACUCCCGGCCUCAAGCAAUCCUCCCACUGGCCUCACAAUGUUGGGAUUACAG,0.195
GUGCUGGUGCAAGGACUUCUGUUCCAAAGGCUGGGAAAAACUAAGCUGUCCCAGCCCCUCCCAUUUCUUGGGCAGGGCUCUUUUCCUGUUGUGUCUUCCCCCAGGGCCUG,0.349
UCUUCUCAUCUCCCAAACCCCCUGAGCCCGUAGGGUUUUCAUAGUGGACAAAGAACUUGUGGUCUUUUAAAACUGGGACUGAUACUUUUUUGAGAGAGUAUCGUGUCGAA,0.365
UCUUCUCAACCCUUCAAACUUCUGGUGACACUUAAGAUGUAGCUGAUUCCCCUCAUCCGAACUGCUGUGUCCAACCUCCAUUGAAGAGCCUUUUCUCCCUCCCUCUCCCU,0.926
ACUGAGGGCUCUGCGUCCCUGCAGUAAACAGGUGAGAUCUGCAGCAGGGCAGGGCUGCUUUAACAGGCAGGGGUGGCAGUAAGUCACAGCUGCUGCUGCUGUCGUCUGCC,0.441
AGAUCACAGAAGAUACAGUUGAGUUCGGAUCAUAGAGACCAUCUCAAGAACUUCAUUUGCUUCAAAACAAGAUAAUGAACAGAAUGCAUUUGUAAAUGCAAGAUGCAUUG,0.289
AACACAGGGGCAAAGGAAGACAGGCCUGAUGUGCCCACUCAUCUAUGGACUCAGAGCUGUGUGCUUUGCUCCUGCAUCUUGUUGAGGUGCUGUUCCAGCUUUGCAUUUCU,0.423
ACACAGUGGGUUUGGUUGUAAGGCAGAUGUAAUAGAUGACUUCAAAAGCCUGCUCCUUACUGCACUCUGGACAAGGCCCUGGUCUGUAUAGUUUGGCUUCCUCUGUUAAG,0.457
